Experimental data of several laboratories.
Each numbered part is a random draw from the data of one study; scales do not carry over between parts.

Series 1
Target: Cellular tumor antigen p53, full length (TP53, Homo sapiens, UniProt P04637, residues 1-393)
Technique: protein-binding microarray
Form: hairpin DNA
Sample: in vitro
Tested at: not given
Setting: whole hairpin DNA, median over replicate spots
Reference: not given
Direction: higher = stronger binding
Measurement: median fluorescence
CCACACGTGGTGGCATGCCTTCCTAGGCATGCCACCACGTGTGGACACTC (5mC at 35): 7630 a.u.
CCACACCGGGTGGCATGCCTTCCTAGGCATGCCACCCGGTGTGGACACTC (5mC at 37): 6180 a.u.
CCACACGTGGGGGCATGCCTTCCTAGGCATGCCCCCACGTGTGGACACTC (5mC at 34): 9140 a.u.
CCACACGTGGTGTCATGCCTTCCTAGGCATGACACCACGTGTGGACACTC: 5930 a.u.
CGGACATGCCCGGGCGTGTCTCCTGACACGCCCGGGCATGTCCGACACTC: 13100 a.u.
CCACACGTGGTCGCATGCCTTCCTAGGCATGCGACCACGTGTGGACACTC (5mC at 12): 5720 a.u.
CGGACATGCCCCGGCATGTCTCCTGACATGCCGGGGCATGTCCGACACTC: 15600 a.u.
CCACACGTGCGGGCATGCCTTCCTAGGCATGCCCGCACGTGTGGACACTC (5mC at 34): 9780 a.u.
CCACACGTGGTAGCATGCCTTCCTAGGCATGCTACCACGTGTGGACACTC: 6630 a.u.
CGGACATGCCCGCGCATGTCTCCTGACATGCGCGGGCATGTCCGACACTC (5mC at 31): 12100 a.u.
CGGACATGCCCGGGCATGTCTCCTGACATGCCCGGGCATGTCCGACACTC (5mC at 15): 23400 a.u.
CCACCGGTGGTGGCATGCCTTCCTAGGCATGCCACCACCGGTGGACACTC (5mC at 5 39): 6380 a.u.
CCACACGTCGTGGCATGCCTTCCTAGGCATGCCACGACGTGTGGACACTC (5mC at 9 35): 7640 a.u.
CCACACCGGGTGGCATGCCTTCCTAGGCATGCCACCCGGTGTGGACACTC: 6930 a.u.
CCATACGTGGTGGCATGCCTTCCTAGGCATGCCACCACGTATGGACACTC: 8270 a.u.
CCACACATGGTGGCATGCCTTCCTAGGCATGCCACCATGTGTGGACACTC: 7430 a.u.

Series 2
Target: RNA binding protein fox-1 homolog 2, RRM domain, GST-SBP tag (RBFOX2, Homo sapiens, UniProt O43251-10, residues 100-194)
Technique: RNA Bind-n-Seq
Form: RNA
Sample: in vitro
Tested at: 365 nM
Setting: natural RNA segment, single round, ends assumed
Reference: no-protein control
Direction: higher = stronger binding
Measurement: RBNS enrichment (R)
All sequences stand within: GGGAGUUCUACAGUCCGACGAUC … UGGAAUUCUCGGGUGCCAA
Target sequence (chain): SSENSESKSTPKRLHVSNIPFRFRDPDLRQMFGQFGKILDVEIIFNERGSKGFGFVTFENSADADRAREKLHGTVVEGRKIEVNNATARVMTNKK
AUGUACCAACAGAAAUAUUAUUGUAAGAUGCCUUUCUUGUAUAAGAUAUGCCAAUAUUUGCUUUAAAUAUCAUAUCACUGUAUCUUCUCAGUCAUUUCUGAAUCUUUCCA: 0.318
AGUUAAUAACGAAUGCUGUUUCAAACAUAACCAAUCUGAUCAUUUUUGGAGAACGAUUCACUUAUGAAGACACCGAUUUUCAGCACAUGAUUGAGUUAUUUAGUGAAAAU: 1.28
AGGGCUAUAUUUUUCUAGCAUUUGACCUACUUGCGACUUGAUACAGAUUGCAUAGCCUGAAAGAGGCUUCUGUGGCCACCUGGGAGUCUCAGUGUUUUCUUCAAAACUUC: 0.556
UUUAAAAUACUUUGCGCCUUGCUUUGAUAAUUUGUAUUAUGUAUCCAAACUGAAAUUAUCUGCUUUCUGCAUUAGAAUGUAAGCCCCCUGAGGGUUGAGUCAGUCUGUCU: 0.413
AAGGGGCUUCUCCCUUUCCUUGAGCUCUCUGGACACUGCAGAGGACCCAUGGCCAUGGAACCCUGAAGAAGCAUGUCUGGCCGCCUCUGAGCUCCUCCCACCCUCCUCCA: 3.46
AUUAAGAACACUAAAAAGUCCUUGCAAGAAUGGAGAUAUGCAUUCAAGAGAGGUGCUAUCACAUAGAUCUAGUCUGAAGUCUGGAACACUUUCCUCUUCUAUGACCCCUC: 0.394
UUUCACUACAGGUCUUGUUAAAAUUCUUUGCAGCACUUCGUGUCCCCUCACGUCCCAUGUGCUCAGACCCAGAAAAAGCAGAACAGAAUUAGAAGUGCCUCUGAGCCUUG: 0.32
CUUAACUUUCUUGUAUGCCUCUAGUAAUUUCAGAGAUUAAAUAUUGCUUUAAACUGUGAUACUUUGAUUUGCUAGAUUGACAAAACUGAUACUAAUAUAAUUAAGUUCAU: 0.556
GCAGCAGAGUGAGGAGAUGAAGCUUACGUGUCCUGACGUUUUGUUGCUUAUACUGUGAUAUCUCAUCCUAGCUAAGCUCUAUAAUGCCCAAGACCCCAAACAGUACUUUU: 0.318
CUUUGACAUCACAGGUCCCUUCCAGGGGUACCACUGGGUAGCUGCAGUGUGCACCGGUCACUACAUUCAGGCUAUUUGAGGUUUUCAUAUGCUGCAUUUCUUUGUUUUUA: 0.418
ACAGUAGCUGAAUUGUGUUAUCAAAACAACUCUGACUUCUGCCCAGAGCACAUUAAAACCAAAGUCUGAUUGUUAAGCCUUUGACUCGGAUGUCUGUAGCAGUUCUAUGA: 0.519
GCCCCGGGUAUGAACCGCAGAACUCUGGAGAUGGCGUUCAGAAUUCUGAGUUCAAAACCCAUAGCCCUGAGUUUGAAACUCAAAGUUCCAAAUUCCAGGAAGGUGCAGAG: 0.347

Series 3
Target: PABPC1L2, full length, GST fusion (mouse, UniProt A0ABA7IW68)
Technique: RNAcompete
Form: RNA
Sample: in vitro
Tested at: 20 nM
Setting: 7-mer, probes averaged, single round
Reference: mean of 7-mers
Direction: higher = stronger binding
Measurement: 7-mer Z-score
Target sequence (chain): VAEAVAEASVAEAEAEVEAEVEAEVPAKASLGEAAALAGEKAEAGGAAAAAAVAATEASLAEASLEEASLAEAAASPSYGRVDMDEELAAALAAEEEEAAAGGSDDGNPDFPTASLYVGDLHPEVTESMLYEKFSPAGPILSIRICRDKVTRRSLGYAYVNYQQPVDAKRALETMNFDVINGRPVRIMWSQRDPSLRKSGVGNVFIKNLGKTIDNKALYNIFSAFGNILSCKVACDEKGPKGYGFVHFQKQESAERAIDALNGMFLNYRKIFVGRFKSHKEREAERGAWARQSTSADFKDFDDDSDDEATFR
ACGUUGA: -0.117
CCCACAA: -0.295
ACGUUAG: -0.144
AUGAGGA: 0.115
AUCAACU: -0.142
GCUUCUU: -0.284
AACCCUU: -0.24
UCGCCCU: -0.421
UCUACCG: -0.351
UGUAGGG: 0.231
UCAAGGG: 0.135
CAAAAUU: 1.83
GUAGCCG: -0.115
AACGAAC: 0.273
GGUAUGC: 0.000733
UCCGUCA: -0.452
GCGUUGG: 0.0696
UAUAUAC: -0.251
UGACCUC: -0.202
CAUCAAG: -0.0718
GUGCCUU: -0.222
AGAGCAU: 0.00436
AACUUCC: -0.166
GGGUUGA: 0.274
AUCAUUU: -0.231

Series 4
Target: Phosphate system positive regulatory protein PHO4, full length, GST-tagged (PHO4, Saccharomyces cerevisiae, UniProt P07270, residues 1-312)
Technique: competition protein-binding microarray
Form: double-stranded DNA, one strand shown
Sample: in vitro
Tested at: 2 µM
Setting: whole 60-bp probe, lowest competitor level
With: Cbf1 competitor, 0.05 µM
Direction: higher = stronger binding
Measurement: fluorescence intensity
All sequences stand within: … GTCTTGATTCGCTTGACGCTGCTG
Residues (chain): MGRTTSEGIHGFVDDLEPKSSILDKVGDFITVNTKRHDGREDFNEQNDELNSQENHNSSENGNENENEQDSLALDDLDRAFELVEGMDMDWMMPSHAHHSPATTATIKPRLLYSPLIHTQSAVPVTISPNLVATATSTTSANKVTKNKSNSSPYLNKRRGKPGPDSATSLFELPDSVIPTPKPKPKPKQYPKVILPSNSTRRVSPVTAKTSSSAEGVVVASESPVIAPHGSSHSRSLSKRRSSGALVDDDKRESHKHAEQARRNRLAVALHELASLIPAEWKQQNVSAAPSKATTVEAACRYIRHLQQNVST
CATACCCAACCTTGACTCGTGGGTGAAGATATTTGT: 10500 a.u.
GGGGAGGATGATTTTCATGTGCGAATATCTACCGGC: 4760 a.u.
CTTTCCCGATCTTGGATAGTGGGTGTAGCACATTTG: 4390 a.u.
CAGAGTGGTTTATGTCAGGTGGTATTGCCTTGGATC: 5110 a.u.
CATACCCAACCTTGTCACTCTACTTAAGATATTTGT: 4260 a.u.
CTTGCAGCTTTTTCTTTAAGGTAAAAATCATTTTGG: 2700 a.u.
TGCGCAACAACTTGAATGGTGGGTGTATGTCTAGAA: 4760 a.u.
ACCGGCAAGCGTTGGCTCATGACAACTGCCACCTCC: 3540 a.u.
AAAAGTTTGTAGCCACTCGTGAAGTTCTCTGTATGT: 5350 a.u.
TTCGATGATGCTTGTCACGTGAACGAAGACTTCCAG: 12300 a.u.
CTAACGAAGGTTTGTCACTTTACTTACAAGCCAAGT: 3010 a.u.
AAGATGAGCTAAACTCTCGTGGATTAAATTTAAGCG: 6490 a.u.
CGGTGGTATAGAAATGACGTGCCAGGCATAAGGTGA: 6430 a.u.
TGCGCAACAACTTGTTCCGTGGGTGTATGTCTAGAA: 5140 a.u.
AAATTACTAAGTTGACACGTGGGTGACGCCGTATGA: 19800 a.u.
CGTCCTAGTGATTTTCACGTGGTGTCCATGAGGAAG: 14400 a.u.
GGGCAAAACTATCCGCACGCTGAAACAGGCTGATGA: 7650 a.u.
ATTGTTGATGCTCTTGGCATGACAGAGGCGACGCCG: 4090 a.u.
TGACACCCCCCAACACACGTTCCGCCCACTTTTTTT: 7750 a.u.
CTTTCCCGATCTTGTCTTGTGGGTGTAGCACATTTG: 5340 a.u.
GTCTTGTCTCATTGTCCAGTGGGTGTCCCCACTTCA: 4400 a.u.
TGCGCAACAACTTGAGAGGTGGGTGTATGTCTAGAA: 4570 a.u.
CATACCCAACCTTCCCACGTGTTTTAAGATATTTGT: 21200 a.u.
CATAGATCGCACCAGCGCGTGGGTATCTTTCATTAT: 11600 a.u.

Series 5
Target: Interferon regulatory factor 5, full length, phosphomimetic (IRF5, Homo sapiens, UniProt Q13568-2, residues 1-514, S451D/S453D/S456D/S462D)
Technique: protein-binding microarray
Form: double-stranded DNA, one strand shown
Sample: in vitro
Tested at: 940 nM top
Setting: 60-bp whole probe
With: salmon DNA 0.4 mg/ml
Reference: random background probes
Direction: higher = stronger binding
Measurement: fitted relative affinity
All sequences stand within: GCCTAGCAC … GTCTTGATTCGCTTGACGCTGCTG
TCATAATTCTTTGCTCATACTGTGCTA: 0.87 z-score
TTAGGAGTGGACTATCGGTTAGTGCTA: -0.0919 z-score
TTAGGTCTCCTTATCGTTTAGTGCTAG: 0.572 z-score
TTAGAACTGGACACTGGGTTAGTGCTA: -0.458 z-score
TTAGGTCTCGGACTGGGTGAGTGCTAG: 0.834 z-score
GGGTCTCTGGGTCGGGCAGGGTGCTAG: 0.281 z-score
TTTGCTTTAGTCATTCACTGAGTGCTA: -0.084 z-score
TCAGTTTTAGGTCCCTTACTGTGCTAG: 0.0487 z-score
TCATATCACTATTCTAGGACTGTGCTA: 0.762 z-score
TTAGGTATCGGTATCGGTAAGTGCTAG: 11.2 z-score
TGGAACTTAAAAGAAAGATAGTGCTAG: -0.019 z-score
TCACTCTTCTTGCATCTGACTGTGCTA: 1.32 z-score
TTAGAGATCAGTATCGATTAGTGCTAG: 5.2 z-score
GACGATTTTGGGTTTCGAGACGTGCTA: 2.82 z-score
GACGTACTGCTTATCCTGACGTGCTAG: -0.0104 z-score
TCATTTTTTTTTTGGAAACTGTGCTAG: 0.622 z-score
TTGGATTCCAGTTTCGATTAGTGCTAG: 8.73 z-score
TTACGTTCCGGTTTCGGTTAGTGCTAG: 10.2 z-score
TTAGGTATCTGACTGGGTTAGTGCTAG: 0.578 z-score
AGTGTTTGCCCTATTTAAGAGTGCTAG: 0.357 z-score
TTAGGGTTCGGTCTCGGTTAGTGCTAG: 2.5 z-score
GGCGGTTTCGACTATCGGGACGTGCTA: 8.28 z-score
GACGGACTGGGGACTGGGGTCGTGCTA: -0.29 z-score
AACTTTCTCTGCTCTTTTCAAGTGCTA: 2.24 z-score

A few entries again (series 5):
TCAGTTTTAGGTCCCTTACTGTGCTAG: 0.0487 z-score
TCATATCACTATTCTAGGACTGTGCTA: 0.762 z-score
TTAGGTATCGGTATCGGTAAGTGCTAG: 11.2 z-score
TGGAACTTAAAAGAAAGATAGTGCTAG: -0.019 z-score
TCACTCTTCTTGCATCTGACTGTGCTA: 1.32 z-score
TTAGAGATCAGTATCGATTAGTGCTAG: 5.2 z-score
GACGATTTTGGGTTTCGAGACGTGCTA: 2.82 z-score
GACGTACTGCTTATCCTGACGTGCTAG: -0.0104 z-score
TCATTTTTTTTTTGGAAACTGTGCTAG: 0.622 z-score
